{"data": "Published values collected from several papers", "organism": "Human alphaherpesvirus 1", "note": "Each line is one published result; not all experiments were run side by side."}
{"SMILES": "C=CC1CN(C(=O)NCC=CCSSSCC=CCNC(=O)N2CC(C=C)OC2=S)C(=S)O1 (centres unmarked)", "assay": "viral replication", "test system": "HSV-1", "quantity": "IC50", "value": "2.87 µM"}
{"SMILES": "Cc1ccc(S(=O)(=O)Nn2c3c(cc(-c4nc5ccccc5s4)c2=O)CCCCCC3)cc1", "assay": "viral replication, plaque reduction", "test system": "Vero cells", "how to read": "reference: CC50 over IC50", "quantity": "selectivity index", "value": 3.06}
{"SMILES": "Cc1ccc(O)c(C=NNC(=N)NO)n1", "assay": "plaque formation", "test system": "Vero", "conditions": "96 h", "quantity": "IC50", "value": "38 µM"}
{"SMILES": "C=C(C)[C@@H]1CC[C@]2(CO)CC[C@]3(C)[C@H](CC[C@@H]4[C@@]5(C)CCCNC(C)(C)[C@@H]5CC[C@]43C)[C@@H]12", "assay": "cytopathic effect", "test system": "HFF, E-377", "quantity": "EC50", "value": "> 6 µM"}
{"SMILES": "CC(=O)O[C@@H]1[C@@H](OC(C)=O)[C@H](Sc2sc(C(=O)c3ccc(Br)cc3)c(N)c2-c2nc3ccccc3s2)OC[C@H]1OC(C)=O", "assay": "plaque formation", "test system": "HSV-1", "quantity": "IC50", "value": "0.57 µg/mL"}
{"SMILES": "C=C(C)[C@@H]1CCC=C2CC[C@]3(C)[C@H](CC[C@@H]4[C@@]5(C)CCCNC(C)(C)[C@@H]5CC[C@]43C)[C@H]21", "assay": "cytopathic effect", "test system": "HFF, E-377", "quantity": "EC90", "value": "> 6 µM"}
{"SMILES": "O=c1c(-c2nc3ccccc3s2)cc2c(n1NS(=O)(=O)c1ccc(Cl)cc1)CCCCCC2", "assay": "viral replication, plaque reduction", "test system": "Vero cells", "quantity": "IC50", "value": "89 µg/mL"}
{"SMILES": "N=C(NO)NN=Cc1ccc2ccccc2n1", "assay": "plaque formation", "test system": "Vero", "conditions": "96 h", "quantity": "IC50", "value": "23.5 µM"}
{"SMILES": "C[C@H]1[C@H](C)CC[C@]2(CO)CC[C@]3(C)C(=CC[C@@H]4[C@@]5(C)CCCNC(C)(C)[C@@H]5CC[C@]43C)[C@H]12", "assay": "cytopathic effect", "test system": "HFF, E-377", "quantity": "EC90", "value": "> 6 µM"}
{"SMILES": "CC(=O)OC[C@H]1O[C@@H](Sc2sc(C(=O)c3ccc(Br)cc3)c(N)c2-c2nc3ccccc3s2)[C@H](OC(C)=O)[C@@H](OC(C)=O)[C@@H]1OC(C)=O", "assay": "plaque formation", "test system": "HSV-1", "quantity": "IC50", "value": "0.55 µg/mL"}
{"SMILES": "N=C(NO)NN=Cc1cccc(Cl)n1", "assay": "plaque formation", "test system": "Vero", "conditions": "96 h", "quantity": "IC50", "value": "> 100 µM"}
{"note": "A few entries again:"}
{"SMILES": "CC(=O)O[C@@H]1[C@@H](OC(C)=O)[C@H](Sc2sc(C(=O)c3ccc(Br)cc3)c(N)c2-c2nc3ccccc3s2)OC[C@H]1OC(C)=O", "assay": "plaque formation", "test system": "HSV-1", "quantity": "IC50", "value": "0.57 µg/mL"}
